Experimental data gathered from unrelated publications.
Organism: Staphylococcus aureus

SMILES | assay | system | conditions | MIC
CC(C)CCCCCCCCC/C=C/C(=O)N[C@@H](CC(=O)O)C(=O)N[C@H]1CNC(=O)[C@@H]2CCCN2C(=O)CNC(=O)[C@@H]([C@@H](C)O)NC(=O)CNC(=O)[C@H](CC(=O)O)NC(=O)CNC(=O)[C@H](CC(=O)O)NC(=O)CNC(=O)[C@H]2CCCCN2C1=O | – | MRSA USA300 | with: Ca2+ 1 mM | > 64 mg/L
COc1ccc2cc3[n+](cc2c1OCCCOc1ccc(Cl)cc1)CCc1cc2c(cc1-3)OCO2 | microbial growth | ATCC43300 | drug-resistant strain, clinical isolate | 4 mg/L
CC(=O)N[C@@H](CCCNC(=N)N)C(=O)N[C@@H](Cc1c[nH]c2ccccc12)C(=O)N[C@@H](CCCNC(=N)N)C(=O)N[C@@H](Cc1c[nH]c2ccccc12)C(=O)N[C@@H](Cc1c[nH]c2ccccc12)C(=O)N[C@@H](CCCCN)C(=O)N1CCC[C@H]1C(=O)N[C@H](C(N)=O)C(C)C | – | MSSA ATCC 29213, Mueller-Hinton broth | overnight, 37 °C | > 90.8 µM
O=[N+]([O-])c1ccc2c(c1)C=[N+]1N3C(=[O+][Cu-2]1([Cl])[O]2)c1ccccc1NC3c1cc([N+](=O)[O-])ccc1O (stereo not shown) | broth microdilution | MRSA clinical isolate SA 630 | 24 h, 37 °C | 8 mg/L
CN[C@@H]1[C@H](O)[C@H](NC)[C@H]2O[C@]3(O)[C@H](O[C@@H]2[C@H]1O)O[C@H](C)C[C@@]3(O)CNCc1ccccc1 | – | MRSA NRS70 | – | 50 to 100 mg/L
CC[C@H](C)[C@H](NC(=O)[C@H](CCCCNC(=N)N)NC(=O)[C@H](CC(N)=O)NC(=O)[C@H](CC(C)C)NC(=O)[C@H](Cc1ccccc1)NC(=O)[C@H](CCCCNC(=N)N)NC(=O)[C@H](CCCCNC(=N)N)NC(=O)[C@H](CC(C)C)NC(=O)[C@H](CC(C)C)NC(=O)[C@H](CCCCNC(=N)N)NC(=O)[C@H](CCCCNC(=N)N)NC(=O)[C@H](CC(C)C)NC(=O)CNC(C)=O)C(=O)N[C@@H](CCCCNC(=N)N)C(=O)N[C@@H](CCCCNC(=N)N)C(N)=O | broth microdilution | multidrug-resistant | – | 3.12 µM
CC[C@H](C)[C@H](NC(=O)[C@H](CCCCN)NC(=O)[C@H](CCCCN)NC(=O)[C@H](Cc1ccccc1)NC(=O)[C@H](Cc1ccccc1)NC(=O)[C@H](CCCCN)NC(=O)[C@H](CCCCN)NC(=O)[C@H](Cc1ccccc1)NC(=O)[C@H](CCCNC(=N)N)NC(=O)[C@@H](N)CCCCN)C(=O)N[C@@H](CCCCN)C(=O)N[C@@H](CCCCN)C(=O)N[C@@H](CO)C(=O)N[C@H](C(=O)N[C@@H](CCCCN)C(=O)N[C@@H](CCCCN)C(=O)N[C@@H](CCCNC(=N)N)C(=O)N[C@H](C(=O)N[C@@H](CCCCN)C(=O)N[C@@H](CCCCN)C(=O)N[C@@H](CC(C)C)C(=O)N[C@@H](Cc1ccccc1)C(=O)N[C@@H](CCCCN)C(=O)N[C@@H](CCCCN)C(=O)N1CCC[C@H]1C(=O)N[C@@H](CCCNC(=N)N)C(=O)N[C@H](C(=O)N[C@H](C(=O)N1CCC[C@H]1C(=O)N[C@H](C(=O)N[C@@H](CO)C(=O)N[C@H](C(=O)N1CCC[C@H]1C(=O)N[C@@H](Cc1ccccc1)C(=O)O)[C@@H](C)CC)[C@@H](C)CC)[C@@H](C)CC)C(C)C)C(C)C)C(C)C | – | ATCC 29213 | 20 h | 16 mg/L
CC[C@H](C)[C@H](N)C1=N[C@H](C(=O)N[C@@H](Cc2ccccc2)C(=O)N[C@H](CCC(=O)O)C(=O)N[C@H](C(=O)N[C@H]2CCCCNC(=O)[C@H](CC(N)=O)NC(=O)[C@@H](CC(=O)O)NC(=O)[C@H](Cc3c[nH]cn3)NC(=O)[C@@H](Cc3ccccc3)NC(=O)[C@H]([C@@H](C)CC)NC(=O)[C@@H](CCCN)NC2=O)[C@@H](C)CC)CS1 | – | USA300 MRSA | 18 h, 37 °C, with: ZnSO4 0.3 mM | 2 mg/L
CC1=CC2(C)C(=C(C)C3C4CC(C)CC(C)C4C4Oc5ccc(cc5)CC5(O)NC(=O)C(=C(O)C2C43)C5Nc2ncnc3c2ncn3C2OC(CO)C(O)C2O)C1C (stereo not shown) | microbial growth, broth dilution | ATCC700699 MRSA | drug-resistant strain | 6.3 µM
CN1C(=O)[C@@H]2NC(=O)[C@@H]3NC(=O)[C@@H](c4ccc(O)cc4)NC(=O)[C@H](NC(=O)C(N)c4ccc(O)cc4)Cc4c[nH]c5cc(ccc45)-c4cc3cc(c4O)Oc3ccc(cc3)C[C@H]1C(=O)N[C@@H](C(=O)NCCC[N+](C)(C)C)c1ccc(O)c(c1)Oc1ccc2cc1 (stereo partly shown) | – | ATCC 33591 MRSA, Mueller-Hinton broth | – | > 128 mg/L
c1ccc(CN2CCOCCOCCN(CCCCCCCCCCCCCCN3CCOCCOCCN(CCCCCCCCCCCCCCN4CCOCCOCCN(Cc5ccccc5)CCOCCOCC4)CCOCCOCC3)CCOCCOCC2)cc1 | microbial growth | MRSA USA300 | drug-resistant strain | 1.5 µM
CCCCCCCCCCCCCCC(=O)O.O=C1CCCC2C3CCCN4CCCC(CN12)C34 (stereo not shown) | bacterial growth, broth dilution | ATCC 29213 | – | inactive
CCCCCCCCCCCCCC(=O)N[C@H](CCN)C(=O)N[C@@H]1C(=O)N[C@@H](CCN)C(=O)N[C@@H](CC(C)C)C(=O)N[C@@H](CCN)C(=O)N[C@H](Cc2ccccc2)C(=O)N[C@@H](CC(C)C)C(=O)N[C@@H](CCN)C(=O)N[C@H](CCN)C(=O)N[C@@H](C(C)C)C(=O)N[C@@H](CC(=O)O)C(=O)O[C@@H]1C | broth microdilution | USA 300, methicillin-resistant MDR | – | 2 mg/L
CC[C@H](C)[C@H](NC(=O)[C@H](CCN)NC(=O)[C@H](Cc1ccccc1)NC(=O)[C@H](Cc1ccccc1)NC(=O)CCCCCOC(=O)c1cn(C2CC2)c2cc(N3CCNCC3)c(F)cc2c1=O)C(=O)N[C@@H](CCN)C(=O)N[C@H](Cc1ccccc1)C(=O)N[C@@H](CC(C)C)C(=O)N[C@@H](CCN)C(=O)N[C@@H](C(=O)N[C@@H](CC(C)C)C(=O)N[C@@H](CO)C(N)=O)C(C)C | – | – | 24 h, 37 °C | 6.25 µM
CCCCc1ccc(N2C(=O)/C(=N\NC(=N)N)c3cc(OC)ccc32)cc1 | broth microdilution | BAA41 MRSA | 18 h, 37 °C | 6 mg/L
CC(C)C[C@H](NC(=O)[C@H](CC(C)C)NC(=O)[C@H](C)NC(=O)[C@H](NC(=O)[C@H](CO)NC(=O)[C@@H](CCCCN)NC(=O)[C@@H](CC(C)C)NC(=O)[C@@H](N)Cc1ccccc1)[C@@H](O)C(N)=O)C(=O)O | – | MSSA ATCC 29213 | TFA salt | > 32 mg/L
CC[C@H](C)[C@H](NC(=O)[C@@H](Cc1ccccc1)NC)C(=O)N[C@@H](CO)C(=O)N[C@H](CCC(N)=O)C(=O)N[C@@H](C(=O)N[C@H](C(=O)OC[C@H](N)C(=O)N[C@H]1C(=O)N[C@@H](C)C(=O)N[C@@H](C2CCCCC2)C(=O)N[C@@H]([C@@H](C)CC)C(=O)O[C@H]1C)[C@@H](C)CC)[C@@H](C)CC | broth microdilution | ATCC 29213, MSSA, Mueller-Hinton broth | 16 h, 37 °C | 0.5 mg/L
CC[C@H](C)[C@H](NC(=O)[C@@H](CCCNC(=N)N)NC(=O)[C@H](CCCNC(=N)N)NC(=O)[C@@H]1CCCN1C(=O)[C@H](Cc1c[nH]c2ccccc12)NC(=O)[C@H](CCCNC(=N)N)NC(=O)[C@@H]1CCCN1C(=O)[C@H](CCCNC(=N)N)NC(=O)[C@@H]1CCCN1C(=O)[C@H](CC(C)C)NC(=O)[C@H](Cc1ccc(O)cc1)NC(=O)[C@@H]1CCCN1C(=O)[C@@H]1CCCN1C(=O)[C@H](CCCCN)NC(=O)[C@H](CC(=O)O)NC(=O)[C@@H](N)C(C)C)C(=O)N[C@@H](Cc1ccc(O)cc1)C(=O)N[C@@H](CC(N)=O)C(=O)N[C@H](CCCNC(=N)N)C(N)=O | broth microdilution | DSM 6247 | 18 h | 64 mg/L
CCCO[C@H]1[C@H](O)[C@@H](N)[C@@H](O[C@H]2[C@H](O[C@@H]3O[C@H](CO)[C@@H](O[C@H]4O[C@@H](CN)[C@@H](O)[C@H](O)[C@H]4N)[C@H]3O)[C@@H](O)[C@H](N)C[C@@H]2N)O[C@@H]1CO | broth microdilution | MRSA isolate AG 038 | – | 8 to 16 mg/L
